Results gathered from unrelated publications.
Every numbered part comes from another study and shows a few of its results, in no order. Substitutions count along the parent as printed.

Set 1
Target: RNA binding protein fox-1 homolog 2, RRM domain, GST-SBP tag (RBFOX2, Homo sapiens, UniProt O43251-10, residues 100-194)
Technique: RNA Bind-n-Seq
Form: RNA
Sample: in vitro
Concentration: 365 nM
Setting: natural RNA segment, single round, ends assumed
Reference: no-protein control
Reading: higher = stronger binding
Quantity: RBNS enrichment (R)
Target sequence (chain): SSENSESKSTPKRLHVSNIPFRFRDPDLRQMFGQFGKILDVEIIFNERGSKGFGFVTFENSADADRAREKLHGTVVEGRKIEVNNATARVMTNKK
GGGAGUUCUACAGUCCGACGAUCUUGGGCUGAAAUAAGUAACAGUCUGAGGCAGCCUGCGCCACAGUAAAGUGUGUUGGUUUGCUUGGAAGUCUGGAGUCCUGUGAGUUCUUUUUUUUUUUUUUUCCCCAUCCUGGAAUUCUCGGGUGCCAA: 0.703
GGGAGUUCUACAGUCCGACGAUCUUUAAAUUACUGGAUUCUAAGGAAUUUCUUAUCUGACAGAGCAUCAGAACCAGAGGCUUGGUCCCACAGGCCACGGACCAAUGGCCUGCAGCCGUGACAACACUCCUGUCUGGAAUUCUCGGGUGCCAA: 0.262
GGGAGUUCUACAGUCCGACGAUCCCCAUGUGCUAUCAUUAUAAUCAUGCAGACUUUUACUUCAGUUGCUUCUGAAAGCACUAAGUUUUCAGUUUUGGAGUUACUUCUCCCUUGCCUCUGACACACUGCACACGUGGAAUUCUCGGGUGCCAA: 0.26
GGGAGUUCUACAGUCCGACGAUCAAAAGACUUUAUGUGGAUCUUGUAAAACAGAACCAGAUCUCCUUCUGGGGAAGGCCUUGCCUCUAGGAUGGGCAAGGUUGACUAGGGAUAGUCCCAAAGCAUGACCACAAUGGAAUUCUCGGGUGCCAA: 2.75
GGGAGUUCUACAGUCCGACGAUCUGUCGAUCUUGAAUUCCCUGAAAAAAUUUCUAUAGGAAAUGAAGCUUCCCUGGUCCCCUCCUUUCUGGCCAUUGUCAUCCAUUUCCCAGUUAGGGCAACAAUGAAGGAGGUGGAAUUCUCGGGUGCCAA: 0.631
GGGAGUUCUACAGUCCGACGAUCAGUGGUGUAUUCACAGCUGCUCCUUCUCUGAAUGAAAGAGUGUAGGGACACCUGCCACCAUGGCCAGACCCUGACUGAAUUUCACAUUAAGGCUUUGGAAAGGAGCAAAUUGGAAUUCUCGGGUGCCAA: 0.382
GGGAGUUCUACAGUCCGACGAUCUUUUGAAUGGGAAGUUCUCACUAAAACAAUCCUGAGAUUUCUUAAUUUCAUGGUUCUUUAAAUAUUAUAAACACAGAGUCAACAUAGAAUGAAAUUGUAUUUGUUAAAAUUGGAAUUCUCGGGUGCCAA: 0.727
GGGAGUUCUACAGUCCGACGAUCGCCAGGCUCGAAGAAAAUGAUCUGAAUUUCUUCCUCUUUUUGGUUUUAUUUUGUUGGUUUACUUUGUGUUUUCUCCUUUUUGGGGGGUAUUCAGAGUGGGCCGGGCCCCUUGGAAUUCUCGGGUGCCAA: 0.967
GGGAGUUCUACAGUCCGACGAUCGAAGUUCAUGGUGAUCAGUGCAAUUGACCUUCUCCCUCACUCCUGCCAGUUGAAAAUGGAUUUUUAAAUUAUACUGUAGCUGAUGAAACUCCUGAUUUUGUAGUUAAUUUUGGAAUUCUCGGGUGCCAA: 2.21
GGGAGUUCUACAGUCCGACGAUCGGGCCUAUCCUUGCCUGUAGUUCUCAGUCACUGGAUGCACAAAAUCACUGUGUAACAUUGGCUCACUUGGUGAGCAUAGGGUUGACUGAUAAAAUGUUUAAUUCCCUUGCUGGAAUUCUCGGGUGCCAA: 0.368
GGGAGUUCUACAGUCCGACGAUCACCUCUUGCUGCCAGCACCCAACAGCCUUGCCGUGGGGACCUUGGAAACCUGGCUUUGCUCUGGACAAAGGGUUCCAGAGAGAAGCUAGAAGUCCCCCUUGAAUGACCCCUGGAAUUCUCGGGUGCCAA: 1.41
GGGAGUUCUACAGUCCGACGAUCAGGUCGGCAGACAUGCCAACCUUGGGCUAUUUGAGCUGGAGAAGCUAUGUGAUGCUAGCCGGUGGCUUUCUGGGCUAGGCCCCAGUUUGAGGCUCCCCUGGGAACUAGAGUGGAAUUCUCGGGUGCCAA: 0.615

Set 2
Target: UBE2R2 UBC core domain (UniProt Q712K3)
Technique: yeast two-hybrid
Sample: yeast
Setting: mostly zero background
Reference: not given
Reading: higher = stronger interaction
Quantity: lacZ reporter activity
B1: MSL2 RING domain (UniProt Q9HCI7); chain LLPYFRQSLSCCVCGHLLQDPIAPTNSTCQHYVCKTCKGKKMMMKPSCSWCKDYEQFEENKQ
B2: NSMCE1 RING domain (UniProt Q8WV22); chain RETYPDAVKICNICHSLLIQGQSCETCGIRMHLPCVAKYFQSNAEPRCPHCNDYWPHEIPKV
B3: RNF14 RING domain (UniProt Q9UBS8); chain IKCFNSKLFLCSICFCEKLGSECMYFLECRHVYCKACLKDYFEIQIRDGQVQCLNCPEPKCPSVATPGQVK
B4: RNF4 RING domain (UniProt P78317); chain TGLRPSGTVSCPICMDGYSEIVQNGRLIVSTECGHVFCSQCLRDSLKNANTCPTCRKKINHKRYHP
B5: RNF149 RING domain (UniProt Q8NC42); chain EKGIDVDAENCAVCIENFKVKDIIRILPCKHIFHRICIDPWLLDHRTCPMCKLDVIKALGYW
B6: RNF43 RING domain (UniProt Q68DV7); chain SGSSCSSAPVCAICLEEFSEGQELRVISCLHEFHRNCVDPWLHQHRTCPLCMFNITEGDSFS
B7: TRIM35 RING domain (UniProt Q9UPQ4); chain PSRSFKEELLCAVCYDPFRDAVTLRCGHNFCRGCVSRCWEVQVSPTCPVCKDRASPADLRT
B8: TRIM15 RING domain (UniProt Q9C019); chain SLKVVHELPACTLCAGPLEDAVTIPCGHTFCRLCLPALSQMGAQSSGKILLCPLCQEEEQAETPMA
B9: RNF112 RING domain (UniProt Q9ULX5); chain QPMAPRELPTCSICLERLRDPISLDCGHDFCIRCFSTHRLPGCEPPCCPECRKICKQKRGLR
B10: TRIM55 RING domain (UniProt Q9BYV6); chain TMDNLEKQLICPICLEMFTKPVVILPCQHNLCRKCASDIFQASNPYLPTRGGTTMASGGRFRCPSCRHEVVLDRHG
B11: TRIM52 RING domain (UniProt Q96A61); chain PMQTLQEEAVCAICLDYFKDPVSISCGHNFCRGCVTQLWSKEDEEDQNEEEDEWEEEEDEEAV
Residues (chain): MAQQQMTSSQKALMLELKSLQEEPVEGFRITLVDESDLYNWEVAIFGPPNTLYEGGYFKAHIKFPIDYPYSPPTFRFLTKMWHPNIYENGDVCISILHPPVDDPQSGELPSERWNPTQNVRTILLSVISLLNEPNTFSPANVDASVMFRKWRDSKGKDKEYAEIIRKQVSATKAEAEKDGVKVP
B1 (MSL2 RING domain): 0
B2 (NSMCE1 RING domain): 0
B3 (RNF14 RING domain): 0
B4 (RNF4 RING domain): 0
B5 (RNF149 RING domain): 0
SYEDKSNDFVCPICFDMIEEAYMTKCGHSFCYKCIHQSLEDNNRCPKCNYVVDNIDHLY (COP1 RING domain (UniProt Q8NHY2)): 0
KRQCSDVDDICSICQAEFQKPILLICQHIFCEECMTLWFNREKTCPLCRTVISDHINKW (RNFT1 RING domain (UniProt Q5M7Z0)): 0
B6 (RNF43 RING domain): 0
B7 (TRIM35 RING domain): 0
B8 (TRIM15 RING domain): 0
B9 (RNF112 RING domain): 0
B10 (TRIM55 RING domain): 0
B11 (TRIM52 RING domain): 0
QLQDEEDDSLCRICMDAVIDCVLLECGHMVTCTKCGKRMSECPICRQYVVRAVHVF (RNF34 RING domain (UniProt Q969K3)): 0

Set 3
Target: Ras GTPase-activating protein-binding protein 1, full length (G3BP1, Homo sapiens, UniProt Q13283)
UniProt Q13283, sequence (whole entry, looked up): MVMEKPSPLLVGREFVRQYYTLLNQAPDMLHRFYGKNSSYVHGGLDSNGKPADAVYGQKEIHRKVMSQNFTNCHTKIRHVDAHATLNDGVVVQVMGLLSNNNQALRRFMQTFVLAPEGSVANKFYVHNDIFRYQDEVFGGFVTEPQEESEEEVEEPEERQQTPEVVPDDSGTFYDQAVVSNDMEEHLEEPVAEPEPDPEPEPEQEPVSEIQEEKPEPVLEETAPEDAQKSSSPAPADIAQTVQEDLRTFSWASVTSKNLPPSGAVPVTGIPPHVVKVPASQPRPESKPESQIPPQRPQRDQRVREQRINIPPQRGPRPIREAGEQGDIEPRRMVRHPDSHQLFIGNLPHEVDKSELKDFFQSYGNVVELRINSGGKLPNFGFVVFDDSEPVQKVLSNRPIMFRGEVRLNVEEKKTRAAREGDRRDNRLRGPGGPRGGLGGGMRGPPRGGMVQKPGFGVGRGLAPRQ
Technique: RNA Bind-n-Seq
Form: RNA
Sample: in vitro
Concentration: 200 nM
Setting: whole 134-nt RNA, ends assumed
Added: 150 mM LiCl
Reference: input library
Reading: higher = stronger binding
Quantity: log2 enrichment
Library: 7-deaza-guanosine replaces G
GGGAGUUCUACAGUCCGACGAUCAAGUCCUGUGCUACACAUCGUAUGUACCGAAUCGGUUUUGGGGUUUUGGUUUUGGGAAAGUAUUAUGUUACGCCGUUCGGAUCUGCACUUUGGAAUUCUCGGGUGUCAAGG: -0.765
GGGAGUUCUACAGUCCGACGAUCGUCCUGUGCUACACAUCGUAUGUACCGAAUCGGGGAAAGGGGAAAGGGGUUUUUGGGGAAAGUAUUAUGUUACGCCGUUCGGAUCUGCACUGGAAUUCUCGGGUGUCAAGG: 0.351
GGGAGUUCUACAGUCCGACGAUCUCCUGUGCUACACAUCGUAUGUACCGAAUCGGGUUUUUUUGGGAAAGGGAAAAAAAGGGAAAGUAUUAUGUUACGCCGUUCGGAUCUGCAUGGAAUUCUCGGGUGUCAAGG: -0.45
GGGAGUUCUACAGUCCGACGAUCGCAGGAAGUGAAAACAAAUGGAAAUGCUUCGGAUAGUGGCAGGGGUGGGGGUUGCUAAGGAAAGGGUGGGAUGGGAGUGGGUAAAGAGUUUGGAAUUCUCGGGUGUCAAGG: -0.2
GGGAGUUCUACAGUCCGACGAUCUGGGAGGUGGAUUUUGUUUAUUUUUUUAGCUCAUUUCCAGGGUUGGGAAUUUUUUUUUAAUAUGUGUCAUGAAUAAAGUUGUUUUUGAAAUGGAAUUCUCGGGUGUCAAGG: -0.954
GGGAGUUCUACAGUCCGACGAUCCACAGACAACACGCACCCACACAGACACAGAGGGAAGGGGUUGGGAUGGGGACAGGGUGCACAGCAGGGCGGGGUAGGACCCCAAACCCUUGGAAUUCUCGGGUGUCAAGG: -1.79
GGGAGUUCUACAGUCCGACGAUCAGUCCUGUGCUACACAUCGUAUGUACCGAAUCGGUUUUUGGGGUUUUUGGUUUUUGGAAAGUAUUAUGUUACGCCGUUCGGAUCUGCACUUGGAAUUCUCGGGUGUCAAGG: -1.02
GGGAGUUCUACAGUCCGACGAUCGUCCUGUGCUACACAUCGUAUGUACCGAAUCGGAAAAAAAGGUUUUUGGAAAAAAAGGAAAGUAUUAUGUUACGCCGUUCGGAUCUGCACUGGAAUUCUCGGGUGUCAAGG: -1.6
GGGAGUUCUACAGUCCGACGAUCUGGCCCUGGUGGCAUGCGGGGAGGAAGAGGUGGCCUCAUGGAUCGUGGUGGUCCCGGUGGAAUGUUCAGAGGUGGCUGUGGUGGAGACAGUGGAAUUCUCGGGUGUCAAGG: -0.152
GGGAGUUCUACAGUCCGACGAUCGCAGGAAGUAAAAACAAAUGGAAAUGCUUCGGAUAGUGGCAGGGGUGGGGGUUUCUAAGGAAAGGGUGGGAUGGGAGUGGGUAAAGAGUUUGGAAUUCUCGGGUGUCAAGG: 0.16
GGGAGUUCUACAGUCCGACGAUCCACAGACAACACGCACCCACACAGACACAGAGGGAAGGGGUUGGGAUGGGGACAGGGUGCACAGCAAAGCGGGGUAGGACCCCAGCCCCUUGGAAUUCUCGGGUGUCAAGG: 0.151

Set 4
Target: CCND2, cyclin fold, Cln2 fusion (human)
Technique: yeast growth competition, sequencing
Sample: yeast
Setting: weak parent motif
Reference: not given
Reading: higher = stronger binding
Quantity: normalised enrichment score
Starting sequence: CDKN1A docking peptide (human); SKACRRLFGPVDS
SKMCRRLFGPVDS [A3M]: -0.12
SAACRRLFGPVDS [K2A]: 0.401
SKACRRLFGPFDS [V11F]: 0.148
SKACRRLFWPVDS [G9W]: 0.261
SKACRRLFGGVDS [P10G]: 0.534
SKACRRLFGPVAS [D12A]: 0.0918
SKACLRLFGPVDS [R5L]: -0.103
SQACRRLFGPVDS [K2Q]: 0.416
SKACRRLFGLVDS [P10L]: -0.287
SKACRRLAGPVDS [F8A]: -0.112
SKACRRLFGIVDS [P10I]: 0.3
SKACRRLWGPVDS [F8W]: 0.135
SKWCRRLFGPVDS [A3W]: -0.282
SKACQRLFGPVDS [R5Q]: 0.0448
SKACRRLFGPVLS [D12L]: 0.0976
SKACRRLEGPVDS [F8E]: -0.454
SRACRRLFGPVDS [K2R]: 0.269
SKACRRLFGCVDS [P10C]: 0.0345
SIACRRLFGPVDS [K2I]: 0.221
SKACRRLFGPHDS [V11H]: 0.011
SKACRRLPGPVDS [F8P]: 0.0627
SKACGRLFGPVDS [R5G]: 0.218
SKACRRLFGAVDS [P10A]: 0.493
SKACRYLFGPVDS [R6Y]: 0.224
